Measured values collected from several papers.
Lines come from different studies, so protocols differ. Values joined by “and” are separate records of one study, mostly repeats; a detail may differ.
CDK3: Cyclin-dependent kinase 3 (CDK3, Homo sapiens, UniProt Q00526)
CDK3 with cyclin E: Cyclin-dependent kinase 3, with cyclin E (CDK3, Homo sapiens, UniProt Q00526)
CDK3 with cyclin E1: Cyclin-dependent kinase 3, with cyclin E1 (CDK3, Homo sapiens, UniProt Q00526)

O=C(Nc1cc(-c2ccnc3[nH]ccc23)c(Cl)cn1)[C@H]1CCC[C@@H](NC(=O)C(F)(F)F)C1
remaining binding (CDK3; binding, competition with immobilised ligand; 0.1 µM): 9.7%

CN1C[C@@H](c2c[nH]c3cc(Br)ccc23)NC[C@@H]1c1c[nH]c2cc(Br)ccc12
remaining activity (Cyclin-dependent kinase 3, with cyclin C (CDK3, Homo sapiens, UniProt Q00526); enzyme activity, inhibitor; 10 µM): 104%

Cc1nn(C)c(C)c1/C=C/C(=O)N1CCC[C@H](Cc2ccc(Nc3ccccn3)nn2)C1
activity vs control (CDK3; enzyme activity, inhibitor, ADP detection; 1 µM): 91%

CNC(=O)C1CCN(c2cc(C)c(F)cc2NC(=O)c2ccc(-c3cc(O)ccc3C)c(C)c2)CC1
remaining binding (CDK3; binding, competition with immobilised ligand; 1 µM): 100%

CNS(=O)(=O)Nc1nccc(Cc2c(C)c3ccc(Oc4ncccc4F)cc3oc2=O)c1F
remaining binding (CDK3; binding, competition with immobilised ligand; 10 µM): 100%

CNC1C[S+]2CC[S+]3CC[S+](C1)[Ru-4]321([N]=C=S)[n]2c3ccc(OC)cc3c3c4c(c5cc(F)c[n+]1c5c32)C(=O)NC4=O (stereo not shown)
remaining binding (CDK3; KinomeScan; 0.1 µM; relative to: untreated): 95%

NC(=O)[C@@H](O)C[C@H]1CCc2sc3ncnc(O[C@H]4CC[C@H](N5CCOCC5)CC4)c3c21
inhibition (CDK3 with cyclin E; enzyme activity, inhibitor; 10 µM): 9%

Nc1ncc2c(n1)-c1c([nH]c3ccc(C4=CCOCC4)cc13)CCC2
remaining binding (CDK3; binding, competition with immobilised ligand; 1 µM): 98%

C[C@]1(O)CCCN(c2nc(Nc3ccc(S(=O)(=O)N[C@H]4CC[C@H](CN5CCN(c6ccc(C7CCC(=O)NC7=O)cc6F)CC5)CC4)cc3)ncc2C(F)(F)F)C1 (stereo partly shown)
remaining binding (CDK3; binding, competition with immobilised ligand; 1 µM): 44%

CCn1cc(C(=O)O)c(=O)c2c(N)c(F)c(NC3CCCCC3)cc21
inhibition (CDK3 with cyclin E1; kinase activity; 0.1 µM, together with: ATP at Km): 16.5%

CC(C)=CC1OC(C)(C)C2C=C3C(=O)C(Cl)=CC(O)C3C3C(O)C4OC4C(=O)C132 (stereo not shown)
remaining binding (CDK3; cell-free assay, competition with immobilised ligand; 10 µM): 98%

CN1CCN(Cc2ccc(NC(=O)c3cccc(C#Cc4cnc(N)c5ncccc45)c3)cc2C(F)(F)F)CC1
remaining binding (CDK3; cell-free assay, competition with immobilised ligand; 50 nM): 100%

COc1ccc(C(=O)/C=C/c2ccccc2-c2c[nH]c3ccc(C#N)cc23)c(O)c1
inhibition (CDK3 with cyclin E; enzyme activity, inhibitor; 20 µM): 7%

Cc1cccc(O[C@H]2CCC[C@@H](C(C)CNCc3ccncc3)C2)c1 (relative stereo)
inhibition (CDK3 with cyclin E; kinase activity, kinome panel screening; 1 µM): 1%

Cc1cc(C)nc(Nc2ccc([C@@H]3CCCN(C(=O)/C=C/c4csc(C)n4)C3)nc2)n1
activity vs control (CDK3; enzyme activity, inhibitor, ADP detection; 1 µM): 101%

COc1ccc(NC(=O)Nc2ccc3c(c2)C(=O)N(C(C)CO)CC(C)C(CN(C)Cc2ccc4c(c2)OCO4)O3)cc1 (stereo not shown)
remaining activity (CDK3 with cyclin E; kinase activity, KinaseProfiler; 0.03 µM, species human; relative to: control): 106%

COc1cc(Nc2nccc(-c3cnn4nc(OC)ccc34)n2)cc(C(F)(F)F)c1
remaining binding (CDK3; binding, competition with immobilised ligand; 1 µM): 97%

C=CC(=O)Nc1cccc(-c2cnc3[nH]cc(C(=O)NC(C)(C)C)c3n2)c1
inhibition (CDK3 with cyclin E; kinase activity; 0.1 µM): 13% and 11%

Cc1ccc(-c2c(/C=C(\C#N)C(=O)NC(C)C)n(CCCO)c3ncnc(N)c23)cc1
remaining binding (CDK3; cell-free assay, competition with immobilised ligand; 1 µM): 100%

C=CC(=O)N1CCCC(n2c(=O)c3ncccc3n(Cc3ccc(Oc4ccccc4)cc3)c2=O)C1 (stereo not shown)
remaining binding (CDK3; cell-free assay, competition with immobilised ligand; 1 µM): 95%

COc1c(Cl)cccc1Nc1c(-c2ccncc2C#C[C@@]2(C)CCCN2C(=O)/C=C/CN(C)C)[nH]c2c1C(=O)NCC2
remaining binding (CDK3; binding, competition with immobilised ligand; 3 µM): 93%

C=CC(=O)N1Cc2nc(-c3cc(-c4cc(Cl)cnc4Cl)c(F)cc3F)n(-c3ccncn3)c2C1
inhibition (CDK3 with cyclin E1; cell-free assay, inhibitor; 1 µM): -7.2%

A few entries again:
CN1C[C@@H](c2c[nH]c3cc(Br)ccc23)NC[C@@H]1c1c[nH]c2cc(Br)ccc12
remaining activity (Cyclin-dependent kinase 3, with cyclin C (CDK3, Homo sapiens, UniProt Q00526); enzyme activity, inhibitor; 10 µM): 104%

COc1cc(Nc2nccc(-c3cnn4nc(OC)ccc34)n2)cc(C(F)(F)F)c1
remaining binding (CDK3; binding, competition with immobilised ligand; 1 µM): 97%
